# Measurements pooled from the literature.
# Compare with care: the assays were run in different laboratories. Values joined by “and” are separate records of one study, mostly repeats; a detail may differ. ± marks the error that the study gave.
Structure (SMILES),test,test system,setting,half-life
C=CC[C@@H]1/C=C(\C)C[C@H](C)C[C@H](OC)[C@H]2O[C@@](O)(C(=O)C(=O)N3CCCC[C@H]3C(=O)O[C@H](/C(C)=C/[C@@H]3CC[C@@H](O)[C@H](OC)C3)[C@H](C)[C@@H](O)CC1=O)[C@H](C)C[C@@H]2OC,LC-MS/MS,"rat, whole blood","intraperitoneal, 0.5 mg/kg single dose",4.38 ± 0.1 h
Cc1nc2cccc(OCC(C)(C)C(=O)NC(C)C)c2c(N)c1C(=O)[O-].[Na+],,"male Sprague-Dawley rat, plasma","oral, 30 mg/kg",1.33 h
O=C(NS(=O)(=O)c1cccs1)c1cc2ccccc2n1Cc1ccc(Br)c2ccccc12,,"Sprague-Dawley rat, male, plasma","intravenous, 2 mg/kg",1.43 h
CCCC[C@H](OC(C)=O)c1ccccc1C(=O)O,,"Sprague-Dawley rat, both sexes, whole blood","intravenous, 5 mg/kg, day 7",4.9 ± 1.5 h
C=C(NC(=O)c1csc(-c2nc3c(cc2O)-c2nc(cs2)C(=O)NC(C(C)O)C(=O)NC(=C(C)OC)c2nc(cs2)C(=O)NC2c4nc(cs4)C(=O)NC(COC(=O)c4c5c6c(cccc6n4O)COC(=O)C(OC4CC(C)(O)C(N(C)C)C(C)O4)C2OC5)c2nc-3cs2)n1)C(N)=O (centres unmarked),,"Sprague-Dawley rat, both sexes, plasma","intravenous infusion, 6 mg/kg single dose",5.66 h
COc1ccc([C@@H]2CC(=O)c3c(O)cc(O[C@@H]4O[C@H](CO)[C@@H](O)[C@H](O)[C@H]4O[C@@H]4O[C@@H](C)[C@H](O)[C@@H](O)[C@H]4O)cc3O2)cc1O,LC-MS/MS,"Sprague-Dawley rat, male, obese, plasma","oral, 100 mg/kg",17.6 ± 5.67 h
COC(=O)[C@@]1(C(C)C)C=C(C(=O)Nc2cccc(C(=O)Nc3ccc(Nc4nccc(-c5cccnc5)n4)c(C)c3)c2)C(=O)CC1,,"rat, blood plasma",1 µM,4.81 h and 4.19 h
CCC1(CC)CC(=O)N(C2CCOc3ccc(C(=O)NC4CC(C)(C)Oc5ccccc54)cc32)C(=N)N1 (centres unmarked),,"Wistar Han rat male, plasma",,5.9 ± 2.7 h
N#Cc1ccnc(N2C(=O)CC[C@H]2C(=O)N(c2cncc(F)c2)[C@H](C(=O)NC2CC(F)(F)C2)c2ccccc2Cl)c1,,"Sprague-Dawley rat, plasma",,8.9 h
O=C(O)/C=C\c1cc2ccoc2cc1O[C@@H]1O[C@H](CO)[C@@H](O)[C@H](O)[C@H]1O,,"rat, plasma","oral, 500 mg/kg Eu + 217 mg/kg Pc extract, dosed as combined Eu and Pc extracts",2.59 ± 0.51 h
Cn1cnc([N+](=O)[O-])c1Sc1ccccc1C(=O)NCCC(N)=O,LC-UV/MS,"Sprague-Dawley rat, whole blood","10 µM, 37 °C",0.21 h
OC1(C(F)(F)F)CCN(c2nc(Nc3ccnc(C(F)(F)F)c3)nc(-c3cccc(C(F)(F)F)n3)n2)C1 (centres unmarked),,"Sprague-Dawley rat, both sexes, plasma","oral gavage, 5 mg/kg, day 14",13.9 ± 3.55 h
C=C1C[C@]2(C(=O)OC)C=C(C(=O)Nc3cccc(C(=O)Nc4ccc(Nc5nccc(-c6cccnc6)n5)c(C)c4)c3)C(=O)[C@H]1C2,,"Wistar rat male, blood plasma",10 µM,0.0406 h
CC[C@H](C)[C@@H](C(=O)N[C@@H](CC(C)C)C(=O)N[C@@H](CO)C(=O)N[C@@H](CO)C(=O)N[C@H](C(=O)N[C@@H](CCC(=O)O)C(=O)N[C@H](C(=O)NCC(=O)N[C@@H](CO)C(=O)N[C@@H](CC(N)=O)C(=O)N[C@H](C(=O)N1C[C@H](O)C[C@H]1C(N)=O)[C@@H](C)O)C(C)C)[C@@H](C)O)N(C)C(=O)[C@H](C)NC(=O)CN(C)C(=O)[C@H](Cc1ccccc1)NC(=O)[C@H](CO)NC(=O)[C@H](CO)NC(=O)[C@H](CCCNC(=N)N)NC(=O)[C@H](CCC(N)=O)NC(=O)[C@H](CC(C)C)NC(=O)[C@H](Cc1ccccc1)NC(=O)[C@H](CC(=O)O)NC(=O)[C@H](C)NC(=O)[C@H](CC(C)C)NC(=O)[C@H](CCCNC(=N)N)NC(=O)[C@H](CCC(N)=O)NC(=O)[C@@H](NC(=O)[C@H](C)NC(=O)[C@@H]1CSSC[C@H](NC(=O)[C@H](CCCNC(=N)N)NC(=O)CC[C@H](NC(=O)CCCCCCCCCCCCCCCCCCC(=O)O)C(=O)O)C(=O)N[C@@H](CC(N)=O)C(=O)N[C@@H]([C@@H](C)O)C(=O)N[C@@H](C)C(=O)N[C@@H]([C@@H](C)O)C(=O)N1)[C@@H](C)O,,"Sprague-Dawley rat, lean male, plasma","subcutaneous, 30 nmol/kg single dose, vehicle pH 7.0",35.1 h
CC[C@H](C)[C@H](NC(=O)[C@H](Cc1ccc(O)cc1)NC(=O)[C@@H](NC(=O)[C@H](CCCNC(=N)N)NC(=O)[C@@H](N)CC(=O)O)C(C)C)C(=O)N[C@@H](Cc1c[nH]cn1)C(=O)N1CCC[C@H]1C(=O)O,LC-MS/MS,"Sprague-Dawley rats, both sexes, plasma","subcutaneous, 10 mg/kg/day, day 27",0.267 h
CC[C@H](C)[C@@H](C(=O)N[C@@H](CC(C)C)C(=O)N[C@@H](CO)C(=O)N[C@@H](CO)C(=O)N[C@H](C(=O)N[C@@H](CCC(=O)O)C(=O)N[C@H](C(=O)NCC(=O)N[C@@H](CO)C(=O)N[C@@H](CC(N)=O)C(=O)N[C@H](C(=O)N1C[C@H](O)C[C@H]1C(N)=O)[C@@H](C)O)C(C)C)[C@@H](C)O)N(C)C(=O)[C@H](C)NC(=O)CN(C)C(=O)[C@H](Cc1ccccc1)NC(=O)[C@H](CO)NC(=O)[C@H](CO)NC(=O)[C@H](CCCNC(=N)N)NC(=O)[C@H](CCC(N)=O)NC(=O)[C@H](CC(C)C)NC(=O)[C@H](Cc1ccccc1)NC(=O)[C@H](CCCC(=O)O)NC(=O)[C@H](C)NC(=O)[C@H](CC(C)C)NC(=O)[C@H](CCCNC(=N)N)NC(=O)[C@H](CCC(=O)O)NC(=O)[C@@H](NC(=O)[C@H](C)NC(=O)[C@@H]1CCCCNC(=O)C[C@H](NC(=O)[C@H](CCCNC(=N)N)NC(=O)CC[C@H](NC(=O)CCCCCCCCCCCCCCCCCCC(=O)O)C(=O)O)C(=O)NCC(=O)N[C@@H]([C@@H](C)O)C(=O)N[C@@H](C)C(=O)N[C@@H]([C@@H](C)O)C(=O)N1)[C@@H](C)O,,"Sprague-Dawley rat, lean male, plasma","subcutaneous, 30 nmol/kg single dose, vehicle pH 7.0",> 30 h
COC(=O)[C@@]1(C)C=C(C(=O)Nc2cccc(C(=O)Nc3ccc(Nc4nccc(-c5cccnc5)n4)c(C)c3)c2)C(=O)CC1,,"Wistar rat male, blood plasma",1 µM,0.47 h
